{"data": "Published values gathered from unrelated publications"}
{"SMILES": "[O-][N+]1=C(c2ccccc2)C2=NCCCN2c2ncccc21", "organism": "Parvimonas micra", "test system": "ATCC 3870", "MIC": "≤ 0.06 µg/mL"}
{"SMILES": "CN[C@@H]1[C@H](O)[C@H](NC)[C@H]2O[C@]3(O)[C@H](O[C@@H]2[C@H]1O)O[C@H](C)C[C@@]3(O)CNCCc1ccc(F)cc1", "organism": "Mycobacteroides abscessus", "test system": "ATCC 19977 whiB7 MAB_2355 deleted", "setting": "120 h", "MIC": "1 to 2 µg/mL"}
{"SMILES": "CN(C)CCCNC(=O)[C@@H]1NC(=O)[C@@H]2Cc3ccc(cc3)Oc3cc4cc(c3O)-c3ccc5c(c[nH]c5c3)C[C@@H](NC(=O)C(NC(=O)CCCCCN)c3ccc(O)cc3)C(=O)N[C@H](c3ccc(O)cc3)C(=O)N[C@H]4C(=O)N[C@@H](C(=O)N2C)c2ccc(cc2)Oc2cc1ccc2O (stereo partly shown)", "organism": "Enterococcus faecium", "test system": "WCC 0506, VRE-A", "MIC": "1 to 2 µg/mL"}
{"SMILES": "CO[C@H]1/C=C/O[C@@]2(C)Oc3c(C)c(O)c4c(c3C2=O)C2=NC3(CCN(CC(C)C)CC3)NC2=C(NC(=O)/C(C)=C\\C=C\\[C@H](C)[C@H](O)[C@@H](C)[C@@H](O)[C@@H](C)[C@H](OC(=O)c2ccccc2C(F)(F)F)[C@@H]1C)C4=O", "organism": "Mycobacteroides abscessus", "test system": "ATCC 19977 arr deletion", "setting": "90% growth inhibition", "MIC": "0.12 µM"}
{"SMILES": "O=[N+]([O-])c1ccc(C2=[N+]([O-])c3ccccc3N3CCCN=C23)cc1", "organism": "Parvimonas micra", "test system": "ATCC 3870", "MIC": "≤ 0.06 µg/mL"}
{"SMILES": "Cc1ccc(SCC2OC(OC3C(N)CC(N)C(OC4OC(CN)C(O)CC4N)C3O)C(O)C(N)C2O)cc1 (stereo not shown)", "organism": "Streptococcus pyogenes", "test system": "M12 MGAS9429", "MIC": "18.8 µg/mL"}
{"SMILES": "CC(=O)OC1C(C)C(OC2CC3OCOC3C(C)O2)C=COC2(C)Oc3c(C)c(O)c4c(c3C2=O)C(=O)C=C(NC(=O)C(C)=CC=CC(C(C)OC(=O)C(C)(C)CC(=O)O)C(O)C(C)C(O)C1C)C4=O (stereo not shown)", "organism": "Salmonella enterica Typhimurium", "test system": "NCTC 74", "MIC": "> 128 µg/mL"}
{"SMILES": "CN[C@@H]1[C@H](O)[C@H](NC)[C@H]2O[C@]3(O)[C@H](O[C@@H]2[C@H]1O)O[C@H](C)C[C@@]3(O)CNCc1ccc(F)cc1", "organism": "Mycobacteroides abscessus", "test system": "ATCC 19977 ∆tap", "setting": "120 h", "MIC": "> 128 µg/mL"}
{"SMILES": "CN[C@@H]1[C@H](O)[C@H](NC)[C@H]2O[C@]3(O)[C@H](O[C@@H]2[C@H]1O)O[C@H](C)C[C@@]3(O)CNCc1ccccc1", "organism": "Streptococcus pyogenes", "test system": "ATCC 700294", "MIC": "3.1 µg/mL"}
{"SMILES": "CN1C(=O)[C@@H]2NC(=O)[C@@H]3NC(=O)[C@@H](c4ccc(O)cc4)NC(=O)[C@H](NC(=O)C(NCc4ccc(B(O)O)cc4)c4ccc(O)cc4)Cc4c[nH]c5cc(ccc45)-c4cc3cc(c4O)Oc3ccc(cc3)C[C@H]1C(=O)N[C@@H](C(=O)O)c1ccc(O)c(c1)Oc1ccc2cc1 (stereo partly shown)", "organism": "Enterococcus faecium", "test system": "brain heart infusion medium", "MIC": "8 µg/mL"}
{"note": "A few entries again:"}
{"SMILES": "CN1C(=O)[C@@H]2NC(=O)[C@@H]3NC(=O)[C@@H](c4ccc(O)cc4)NC(=O)[C@H](NC(=O)C(NCc4ccc(B(O)O)cc4)c4ccc(O)cc4)Cc4c[nH]c5cc(ccc45)-c4cc3cc(c4O)Oc3ccc(cc3)C[C@H]1C(=O)N[C@@H](C(=O)O)c1ccc(O)c(c1)Oc1ccc2cc1 (stereo partly shown)", "organism": "Enterococcus faecium", "test system": "brain heart infusion medium", "MIC": "8 µg/mL"}
